# Experimental data collected from several papers.
# Lines come from different studies, so protocols differ. Values joined by “and” are separate records of one study, mostly repeats; a detail may differ. Numbers after ± are the reported error.
SMILES,test,system,setting,how to read,measurement,result
C=CC(=O)Nc1cc(Nc2nccc(-c3cn(C4CC4)c4ccccc34)n2)c(OC)cc1N(C)CCN(C)C,,"BALB/c nude mouse, LU0387 xenograft, serum","oral, 40 mg/kg",,AST activity,98 ± 11.3 U/L
CCO[C@H]1CCN(Cc2c(OC)cc(C)c3[nH]ccc23)[C@H](c2ccc(C(=O)O)cc2)C1,,"human moderate hepatic impairment, plasma","oral, 200 mg single dose, median",,total Tmax,1.5 h
Nc1ncnc2c1ncn2[C@H]1C[C@@H]2OP(=O)(O)OC[C@H]3O[C@@H](n4cnc5c(N)ncnc54)C[C@@H]3OP(=O)(O)OC[C@H]2O1,,"non-tumor-bearing mice, serum","intravenous, 1 mg/kg, toxicity study",,globulin,21.9 ± 1.08 g/L
CC(F)(F)c1cc(F)ccc1-c1sc2cc(O)ccc2c1Oc1ccc(/C=C/C(=O)O)cc1,,"human patients, serum","oral, 400 mg once daily, cycle 1 day 28, fasted, mean",,AUC(0-last),18400 ng·h/mL
Cc1cccc(Cn2cc(CO)c3cnccc32)c1,,"F344 rat, male, liver","oral, 100 mg/kg/day, 2 days",,bile ducts per triad,3.8 and 4.5 and 1.5
COc1cc2c3c(n(CCCN4CCOCC4)c(=O)c2cc1OC)-c1cc2c(cc1C3=O)OCO2,,"beagle dog, female, plasma","intravenous infusion, 50 mg/m^2, 1 h infusion, vehicle 2",,CL,47.2 ± 12 L/h/m²
COc1ncc(-c2nc3c(n2C(C)C)[C@H](c2ccc(Cl)cc2)N(c2cc(Cl)cn(C)c2=O)C3=O)c(OC)n1,LC-MS/MS,"human, plasma","oral, 200 mg, cycle 2 day 1, high-dose arm",,Cmax,1310 ng/mL
CNCCOC12CC3(C)CC(C)(CC(Cn4ncc(-c5ccc(N6CCc7cccc(C(=O)Nc8nc9ccccc9s8)c7C6)nc5C(=O)O)c4C)(C3)C1)C2,,"beagle dog, male, anaesthetised","intravenous bolus, 0.03 mg/kg, 5 min",reference: baseline,mean arterial pressure change,-2%
C[C@H](CS)C(=O)N1CCC[C@H]1C(=O)O,,"male Hartley guinea pigs, anaesthetized","intravenous, 10 mg/kg over 10 min, after infusion",,mean blood pressure,31 ± 0.2 mmHg
C[C@@H](Oc1ccc(S(C)(=O)=O)cc1C(=O)N1C[C@@H]2C[C@]2(c2cc(C(F)(F)F)on2)C1)C(F)(F)F,,human,"oral plus intravenous microtracer, dose not given",,subjects with related somnolence,16.7%
C[C@@H]1O[C@@H](O[C@H]2[C@H](Oc3cc(O)c4c(c3)O[C@H](c3ccc(O)cc3)CC4=O)O[C@H](CO)[C@@H](O)[C@@H]2O)[C@H](O)[C@H](O)[C@H]1O,,PBS receiver,"50 mg/mL, 120 min, pH 6.8",,Papp,0.557 ± 0.8 ×10⁻⁶ cm/s
COc1ccc2[nH]c([S+]([O-])Cc3ncc(C)c(OC)c3C)nc2c1 (stereo not shown),,"healthy Chinese volunteers, plasma","oral, 20 mg, fed, CYP2C19 normal metabolizers",,AUC(0-inf),459 ± 565 ng·h/mL
Cc1nccc2c1c(=O)n(C)c1cc(OC[C@@H](N)CC(C)C)c(C#N)cc21,,"rat, lumbar spinal cord","intrathecal, 1 µg, 30 min",,concentration,317 nM
Cc1c(Cl)c(C)[n+]([O-])c(Cl)c1-c1noc(-c2cc(O)c(O)c([N+](=O)[O-])c2)n1,refers to: Hyperhidrosis,healthy Caucasian subjects,"oral, 25 mg, 4 days",,adverse drug reaction incidence,0%
Cc1nc(-c2cnc(NC(C)C)n(C)c2=O)ccc1Oc1ccnc(-c2cnn(C)c2)c1,,"Beagle dog, male, plasma","oral, 3 mg/kg, crossover study, mean",,Tmax,1.67 h
CS(=O)(=O)c1cccc(-c2nnc(NC(=O)c3ccc(-c4ccccc4)cc3)o2)c1,,sheep erythrocytes,"1 h, pH 7.5",,maximum haemolysis,4.56%
CCOc1c([C@H](C)n2nc(C)c3c(N)ncnc32)cc(Cl)c(F)c1[C@@H]1CNC(=O)C1,refers to: QTcF change above 60 ms,previously treated B-cell malignancy,"oral, 15 mg once daily, baseline QTcF ≤450 ms",reference: baseline,ECG observations,0%
COc1cc(N2CCC3(CCN(C)CC3)CC2)ccc1Nc1ncc(Cl)c(Nc2ccccc2P(C)(C)=O)n1,population PK model,human,"oral, bootstrap median",,Q/F,15.5 L/h
N[C@@H](C[18F])C(=O)O,PET,"female athymic nude mouse, U-87 MG tumour","intravenous, 15 min",,maximum tumour uptake,2 to 3 %ID/cc
CCn1c(C(=O)N(C2CC2)C2CC2)cc2c3c(ncn3C)c(Nc3cc(C)n(C)n3)nc21,,cancer patients,"oral, 200 mg single dose, day 1, 3.0 h",,plasma concentration,1850 ng/mL
Cc1cc(Nc2cc3ncccc3c(N[C@@H]3C[C@H]4CC[C@@H](C3)N4CCC#N)n2)n[nH]1,,healthy human subjects,"oral, 30 mg, 14 days, multiple ascending dose",,pruritus incidence,0%
CC(C)C[C@H](NC(=O)[C@H](CCc1ccccc1)NC(=O)CN1CCOCC1)C(=O)N[C@@H](Cc1ccccc1)C(=O)N[C@@H](CC(C)C)C(=O)[C@@]1(C)CO1,"population PK, two-compartment model","adult relapsed/refractory DLBCL patients, plasma","intravenous infusion, dose not given, added: R-ICE",,intercompartmental clearance,12.5 L/h
CCn1c(SCC(=O)Nc2cccc(C(C)=O)c2)nnc1-c1ccncc1,,,,,pKa,3.12
CC(=O)NCCc1c[nH]c2ccc(O)cc12,"sulfation, substrate",pooled human kidney cytosol,"50 µM, 30 min, added: 50 mM NaF",,specific activity,3.56 ± 0.13 pmol/min/mg
Cc1ccc([C@@H]2O[C@H](CO)[C@@H](O)[C@H](O)[C@H]2O)cc1Cc1ccc(-c2ccc(F)cc2)s1,refers to: inorganic phosphorus,Japanese type 2 diabetes patients,"25 mg, day 5, 24 h urine collection",reference: baseline,urinary phosphate excretion change,-36.4 mg
N#CC(Cc1ccc(O)cc1)c1ccc(O)cc1 (stereo not shown),,"rat, Long-Evans, female, serum","subcutaneous, 2 mg/kg single dose",,aglycone share of Cmax,36%
CNC(=O)c1ccc(-c2cnc3ncc(Cc4ccc5ncccc5c4)n3n2)cc1F,"CTCAE v4.0, any causality",human cancer patients,"oral, 600 mg twice daily, expansion cohort at RP2D",,alkaline phosphatase increase incidence (all grades),0%
O=C(CCCN1CCC(O)(c2ccc(Cl)cc2)CC1)c1ccc(F)cc1,,"male Hartley guinea pigs, anaesthetized","intravenous, 0.1 mg/kg over 10 min, after infusion",,mean blood pressure,33 ± 0.1 mmHg
Cc1cc(-c2nccc3c2ccn3CC(=O)Nc2ccc(-c3cnccn3)cn2)ccn1,,healthy human volunteers,"oral, 20 mg single dose, single ascending dose",,application site scab incidence,0%
CC(C)[C@@H](CS(=O)(=O)C(C)C)N1C(=O)[C@@](C)(CC(=O)O)C[C@H](c2cccc(Cl)c2)[C@H]1c1ccc(Cl)cc1,,"FVB mice Abcg2 knockout, brain","intravenous, 20 mg/kg",,AUC(0-inf),155 ± 27.9 ng·h/mL
CCc1cc(C(=O)NC)c2nccc(N3CCc4c(cc(Cn5ccnc5)cc4-c4cn(C)nc4C(F)(F)F)C3=O)c2c1,,Sprague Dawley rat,"oral, 50 mg/kg once daily, 7 days",reference: vehicle,change in HCT,1.97%
Cc1ccc(Sc2ccccc2N2CCNCC2)c(C)c1,TEAE vomiting,healthy adult men,"oral, 10 mg single dose, 8 nights, fed",,adverse event incidence,5.3%
CC(C)c1nc(N(C)S(C)(=O)=O)nc(-c2ccc(F)cc2)c1/C=C/[C@@H](O)C[C@@H](O)CC(=O)O,,"Wistar albino rat, both sexes, plasma","oral, 20 mg/kg, 2.5 h",,plasma concentration,682 ng/mL
COc1ccc(-c2c(C)[nH]c3cc(OC)c(Cl)cc3c2=O)cc1,,PAMPA,pH 7.4,,Papp,97 ×10⁻⁶ cm/s
CO[C@@H]1[C@H](OC(=O)N2CC(CCN3CCOCC3)C2)CC[C@]2(CO2)[C@H]1[C@@]1(C)O[C@@H]1CC=C(C)C,,humans,"subcutaneous, 1.8 mg twice weekly for 4 weeks, day 28",reference: baseline,prothrombin time,0.12 ± 0.44 s
O=C(O)CCC(=O)O.[2H]C([2H])([2H])Oc1cc(C)c2[nH]ccc2c1CN1CC[C@@H](C2CC2)C[C@H]1c1ccc(C(=O)O)cc1,,"human, plasma","200 mg once daily, day 10, multiple ascending dose",,CLss/F,3.08 L/h
N#Cc1ccc2c(c1)[C@H]1CCCN(C(=O)c3ccc4[nH]cnc4c3)[C@H]1C2,,"human, female","40 mg, end of trial",,androstenedione level,4.3 nmol/L
Cc1ccc(CCC(=O)Nc2nnc(S(N)(=O)=O)s2)cc1,,"BALB/c mice, plasma","oral, 20 mg/kg, 24 h",,unbound plasma concentration,not detected
COc1cc(N)c(Cl)cc1C(=O)NC1CCN(CCCOc2ccc(F)cc2)CC1OC (stereo not shown),,"male Hartley guinea pigs, anaesthetized","intravenous, 0.1 mg/kg group, baseline before infusion",,mean blood pressure,33 ± 0.2 mmHg
C[C@@H](O)CCOC(=O)C[C@@H](C)O,,human,"oral drink, dose not given, 30 min post dose, mean",,mean arterial pressure,83 mmHg
CC[C@H](C)[C@H](NC(=O)CN)C(=O)N[C@@H](CC(C)C)C(=O)N[C@@H](CC(=O)O)C(=O)N[C@@H](C)C(=O)N[C@H](C(=O)N[C@@H](CCCCN)C(=O)N[C@@H](C)C(=O)N[C@H](C(=O)N[C@@H](C)C(=O)N[C@@H](CCCCN)C(=O)N[C@@H](C)C(=O)N[C@H](C(=O)N[C@@H](CCCCN)C(=O)N[C@@H](C)C(=O)N[C@@H](CCCCN)C(=O)N[C@@H](C)C(=O)NCC(N)=O)[C@@H](C)CC)[C@@H](C)CC)[C@@H](C)CC,circular dichroism at 222 nm,10 mM SDS,"100 µM, pH 4.0",,mean residue ellipticity,-5930 deg cm2/dmol
Cc1cc(C)c(CNC(=O)c2cc(Cl)c3c(c2C)O[C@@](C)([C@H]2CC[C@H](N(C)C)CC2)O3)c(=O)[nH]1,"CTCAE v4.0, refers to: muscle spasms",human relapsed/refractory NHL,"oral, 200 mg once daily, onset after cycle 1 day 1, overall treatment period",,patients with TEAE,16.7%
CC1(C)CC[C@]2(C(=O)O)CC[C@]3(C)C(=CC[C@@H]4[C@@]5(C)C[C@@H](O)[C@H](OC(=O)/C=C/c6ccc(O)cc6)C(C)(C)[C@@H]5CC[C@]43C)[C@@H]2C1 (relative stereo),,"C57BL/6 mice, brain","intraperitoneal, 85 µmol/kg single dose",,AUC(0-inf),8.37 nmol·h/g
CCCOc1ccc([C@H]2CNC(=O)N2c2ccc3[nH]cnc3c2)cc1,,"human volunteers fasted, plasma","oral capsule, 200 mg single dose, crossover, geometric mean",,effective half-life,2.32 h
C[C@H]1CN(C(=O)CC#N)[C@]12CCN(c1ncnc3[nH]ccc13)C2,,healthy human,"oral, 1.5 mg, single dose",,subjects with Dizziness,12.5%
CC(C)(C(=O)N1CCOc2c(C#N)cncc2C1)C(F)F,refers to: skin abrasion,human,"oral, 20 mg twice daily, 14 days, multiple ascending dose",,subjects with adverse event,0%
C=CCN1CC(=O)N2[C@@H](Cc3ccc(O)cc3F)C(=O)N(Cc3cccc(N4CC(N5CCN(CC)CC5)C4)n3)C[C@@H]2N1C(=O)NCc1ccccc1,,advanced solid tumour patients,"oral, 120 mg twice daily, grade ≥3, dose-escalation",,treatment-related decreased appetite,0%
CCN1/C(=C/C(C)=O)Sc2ccc(F)cc21,,cynomolgus monkey,"oral, 10 mg/kg, 1 h post-dose",,diastolic blood pressure,74 ± 5 mmHg
O=C(COc1ccc(Cl)cc1)NC12CC(c3nnc([C@H]4C[C@@H](OC(F)(F)F)C4)o3)(C1)C2,refers to: Nausea,human,"oral, 145 mg once daily, 14 days",,adverse event incidence,14.3%
Cc1nn(C)cc1S(=O)(=O)NC(=O)c1ccc(-n2ccc(OCC(C)(C)C(F)(F)F)n2)nc1N1C[C@@H](C)CC1(C)C,,,,,pKa (acidic),5
COc1ccc(Br)c(/C=N/NC(=O)COc2ccc(-c3ccccc3)cc2)c1,,sheep erythrocytes,"1 h, pH 7.5",,maximum haemolysis,4.1%
C=CC(=O)N1CCC[C@@H](n2nc(-c3ccc(Oc4ccccc4)cc3)c3c(N)ncnc32)C1,,,,,tapped density,0.61 g/mL
COc1ccc(C[C@@H](C)[C@@H](C)Cc2ccc(OC)c(OC)c2)cc1OC,,"beagle dog female, plasma","oral, 100 mg/kg/day, day 1",,Cmax,1730 ± 150 ng/mL
CN1C(C(=O)Nc2cccc(F)n2)=C(O)c2ccccc2S1(=O)=O,,,,,pKa (acidic),3.6
O=C(Nc1nc2cccc(-c3ccc(CN4CCS(=O)(=O)CC4)cc3)n2n1)C1CC1,refers to: abdominal discomfort,rheumatoid arthritis patients,"oral, 150 mg once daily, 4 weeks, any relatedness",,patients with adverse event,0%
CNC(=O)c1cc(Oc2ccc(NC(=O)Nc3cc(C(C)(C)C)nn3-c3ccc4ncccc4c3)c(F)c2)ccn1,refers to: worst grade 1,human,"oral, dose not given, cycles 1 and 2, High Cmax subgroup",,patients with visual abnormality AE,11%
COc1c(N2C[C@@H]3CCCN[C@@H]3C2)c(F)cc2c(=O)c(C(=O)O)cn(C3CC3)c12,,"male Hartley guinea pigs, anaesthetized","intravenous, 1 mg/kg over 10 min, after infusion",,mean blood pressure,34 ± 0.1 mmHg
CCC(CC)C(=O)Oc1cccc(C(O)CCN)c1.O=CO (stereo not shown),scotopic ERG,BALB/cJ mice,"intraperitoneal, 10 mg/kg, 2 h dark adaptation, added: 10,000 lx photobleach, 10 min",,ERG b-wave amplitude,30 µV and 26 µV and 29 µV and 36 µV and 20 µV and 144 µV

# A few entries again:
SMILES,test,system,setting,how to read,measurement,result
Cc1ccc(CCC(=O)Nc2nnc(S(N)(=O)=O)s2)cc1,,"BALB/c mice, plasma","oral, 20 mg/kg, 24 h",,unbound plasma concentration,not detected
Cc1cccc(Cn2cc(CO)c3cnccc32)c1,,"F344 rat, male, liver","oral, 100 mg/kg/day, 2 days",,bile ducts per triad,3.8 and 4.5 and 1.5
N[C@@H](C[18F])C(=O)O,PET,"female athymic nude mouse, U-87 MG tumour","intravenous, 15 min",,maximum tumour uptake,2 to 3 %ID/cc
CCC(CC)C(=O)Oc1cccc(C(O)CCN)c1.O=CO (stereo not shown),scotopic ERG,BALB/cJ mice,"intraperitoneal, 10 mg/kg, 2 h dark adaptation, added: 10,000 lx photobleach, 10 min",,ERG b-wave amplitude,30 µV and 26 µV and 29 µV and 36 µV and 20 µV and 144 µV
